Measured values pooled from the literature.
A part holds a random share of what one study measured.
UniProt P51812, sequence (whole entry, looked up): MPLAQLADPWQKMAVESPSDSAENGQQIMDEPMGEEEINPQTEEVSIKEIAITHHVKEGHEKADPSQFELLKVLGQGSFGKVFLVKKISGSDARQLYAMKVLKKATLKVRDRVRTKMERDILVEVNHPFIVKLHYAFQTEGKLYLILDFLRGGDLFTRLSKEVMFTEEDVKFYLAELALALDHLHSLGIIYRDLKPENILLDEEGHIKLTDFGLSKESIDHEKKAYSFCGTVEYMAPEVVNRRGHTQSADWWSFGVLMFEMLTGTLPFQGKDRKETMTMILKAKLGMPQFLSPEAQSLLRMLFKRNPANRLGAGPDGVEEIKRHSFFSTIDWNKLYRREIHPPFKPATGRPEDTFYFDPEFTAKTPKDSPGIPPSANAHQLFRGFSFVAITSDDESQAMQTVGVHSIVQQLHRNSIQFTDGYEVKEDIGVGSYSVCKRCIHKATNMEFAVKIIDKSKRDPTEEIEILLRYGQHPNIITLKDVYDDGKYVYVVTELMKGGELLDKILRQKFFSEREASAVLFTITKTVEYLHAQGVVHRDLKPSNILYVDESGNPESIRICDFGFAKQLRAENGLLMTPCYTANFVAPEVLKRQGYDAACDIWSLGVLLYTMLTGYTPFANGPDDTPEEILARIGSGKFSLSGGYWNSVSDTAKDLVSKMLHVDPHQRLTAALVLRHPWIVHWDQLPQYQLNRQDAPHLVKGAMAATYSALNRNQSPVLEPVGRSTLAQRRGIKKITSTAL
UniProt P0C1S8, sequence (whole entry, looked up): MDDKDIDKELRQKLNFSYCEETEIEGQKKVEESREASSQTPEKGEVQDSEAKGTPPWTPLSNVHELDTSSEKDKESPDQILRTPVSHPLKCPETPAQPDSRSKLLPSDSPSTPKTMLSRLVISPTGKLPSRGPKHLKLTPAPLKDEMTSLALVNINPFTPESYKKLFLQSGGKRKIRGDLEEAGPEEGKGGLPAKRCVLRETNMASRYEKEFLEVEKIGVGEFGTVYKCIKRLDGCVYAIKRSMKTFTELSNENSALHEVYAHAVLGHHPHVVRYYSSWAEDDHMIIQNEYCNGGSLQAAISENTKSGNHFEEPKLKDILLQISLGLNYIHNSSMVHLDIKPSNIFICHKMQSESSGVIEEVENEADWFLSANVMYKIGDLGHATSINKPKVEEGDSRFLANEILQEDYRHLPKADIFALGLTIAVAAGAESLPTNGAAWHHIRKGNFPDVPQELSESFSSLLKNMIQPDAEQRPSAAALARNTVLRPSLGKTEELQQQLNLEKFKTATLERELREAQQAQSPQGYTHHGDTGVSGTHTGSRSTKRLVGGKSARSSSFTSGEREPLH
UniProt Q8WTQ7, sequence (whole entry, looked up): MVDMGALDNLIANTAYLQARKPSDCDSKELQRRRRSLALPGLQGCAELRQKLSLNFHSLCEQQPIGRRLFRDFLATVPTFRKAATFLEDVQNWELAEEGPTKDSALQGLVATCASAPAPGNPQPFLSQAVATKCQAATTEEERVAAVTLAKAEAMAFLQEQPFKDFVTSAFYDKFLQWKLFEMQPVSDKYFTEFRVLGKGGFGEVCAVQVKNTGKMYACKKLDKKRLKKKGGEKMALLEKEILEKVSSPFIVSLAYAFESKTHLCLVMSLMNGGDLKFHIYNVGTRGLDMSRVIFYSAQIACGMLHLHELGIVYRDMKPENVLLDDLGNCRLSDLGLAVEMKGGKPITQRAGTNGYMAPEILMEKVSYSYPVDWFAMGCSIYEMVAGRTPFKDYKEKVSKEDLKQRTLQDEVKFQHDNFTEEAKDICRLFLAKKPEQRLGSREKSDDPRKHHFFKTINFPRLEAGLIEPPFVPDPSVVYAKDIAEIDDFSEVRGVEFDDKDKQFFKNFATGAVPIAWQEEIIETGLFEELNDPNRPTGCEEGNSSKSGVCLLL
UniProt P78368, sequence (whole entry, looked up): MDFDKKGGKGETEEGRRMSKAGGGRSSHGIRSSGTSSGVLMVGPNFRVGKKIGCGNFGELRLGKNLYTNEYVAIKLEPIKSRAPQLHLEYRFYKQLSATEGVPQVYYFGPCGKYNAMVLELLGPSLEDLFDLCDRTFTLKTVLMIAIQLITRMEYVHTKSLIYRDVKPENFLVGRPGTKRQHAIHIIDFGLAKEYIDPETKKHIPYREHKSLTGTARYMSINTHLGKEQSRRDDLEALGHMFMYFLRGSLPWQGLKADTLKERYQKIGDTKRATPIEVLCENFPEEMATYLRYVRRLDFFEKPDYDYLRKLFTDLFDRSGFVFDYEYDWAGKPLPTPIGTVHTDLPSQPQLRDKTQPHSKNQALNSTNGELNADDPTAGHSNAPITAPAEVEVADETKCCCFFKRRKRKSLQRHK
UniProt P51451, sequence (whole entry, looked up): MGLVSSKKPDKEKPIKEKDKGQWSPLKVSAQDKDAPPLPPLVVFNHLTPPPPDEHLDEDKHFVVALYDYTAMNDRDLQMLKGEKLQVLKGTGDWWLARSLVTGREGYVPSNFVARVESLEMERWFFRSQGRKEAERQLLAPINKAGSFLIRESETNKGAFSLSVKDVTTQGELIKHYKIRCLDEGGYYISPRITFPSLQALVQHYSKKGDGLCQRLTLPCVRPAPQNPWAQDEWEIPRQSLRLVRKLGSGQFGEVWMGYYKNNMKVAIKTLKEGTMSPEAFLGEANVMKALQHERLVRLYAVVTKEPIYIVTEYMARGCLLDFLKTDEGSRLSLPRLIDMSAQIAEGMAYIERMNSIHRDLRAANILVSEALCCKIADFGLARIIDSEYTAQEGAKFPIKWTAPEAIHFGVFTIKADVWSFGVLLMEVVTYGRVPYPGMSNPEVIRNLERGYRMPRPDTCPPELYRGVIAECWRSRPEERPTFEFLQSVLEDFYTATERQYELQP
UniProt Q12866, sequence (whole entry, looked up): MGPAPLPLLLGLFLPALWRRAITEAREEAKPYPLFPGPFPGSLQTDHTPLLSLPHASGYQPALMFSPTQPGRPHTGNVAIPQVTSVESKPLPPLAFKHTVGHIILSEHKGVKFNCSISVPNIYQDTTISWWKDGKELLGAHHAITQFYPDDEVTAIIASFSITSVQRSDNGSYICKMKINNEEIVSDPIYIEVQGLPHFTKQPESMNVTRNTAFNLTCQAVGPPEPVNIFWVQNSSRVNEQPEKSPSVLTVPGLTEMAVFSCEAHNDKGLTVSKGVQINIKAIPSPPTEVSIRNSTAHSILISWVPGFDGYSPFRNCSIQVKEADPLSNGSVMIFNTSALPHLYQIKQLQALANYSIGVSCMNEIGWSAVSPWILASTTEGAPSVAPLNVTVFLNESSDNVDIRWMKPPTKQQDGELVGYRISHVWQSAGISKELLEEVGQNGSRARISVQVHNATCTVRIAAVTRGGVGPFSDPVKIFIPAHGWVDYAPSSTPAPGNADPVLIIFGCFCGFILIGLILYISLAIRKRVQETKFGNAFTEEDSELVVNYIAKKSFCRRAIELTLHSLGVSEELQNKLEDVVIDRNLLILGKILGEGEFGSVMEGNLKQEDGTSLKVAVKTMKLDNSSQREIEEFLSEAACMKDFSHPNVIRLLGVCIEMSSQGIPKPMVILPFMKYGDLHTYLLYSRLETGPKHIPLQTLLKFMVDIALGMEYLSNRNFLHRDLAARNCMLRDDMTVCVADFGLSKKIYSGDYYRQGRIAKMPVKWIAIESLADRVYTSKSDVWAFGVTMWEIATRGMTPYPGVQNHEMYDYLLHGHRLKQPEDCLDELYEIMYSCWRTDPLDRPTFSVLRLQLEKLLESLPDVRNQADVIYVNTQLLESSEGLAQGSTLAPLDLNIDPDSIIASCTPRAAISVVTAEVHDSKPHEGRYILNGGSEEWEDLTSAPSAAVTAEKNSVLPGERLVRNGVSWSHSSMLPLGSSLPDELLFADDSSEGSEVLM
UniProt O24408, sequence (whole entry, looked up): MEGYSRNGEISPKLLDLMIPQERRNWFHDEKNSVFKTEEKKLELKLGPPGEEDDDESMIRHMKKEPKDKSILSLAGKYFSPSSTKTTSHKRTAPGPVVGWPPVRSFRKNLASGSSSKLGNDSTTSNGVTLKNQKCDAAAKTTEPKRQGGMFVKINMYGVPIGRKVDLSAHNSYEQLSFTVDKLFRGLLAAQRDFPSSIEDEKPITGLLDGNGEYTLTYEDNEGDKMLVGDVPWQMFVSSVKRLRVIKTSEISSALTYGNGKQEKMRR

Sample 1
Target: TAR DNA-binding protein 43, full length, His tag (TARDBP, Homo sapiens, UniProt Q13148, residues 1-414)
Technique: RNA Bind-n-Seq
Molecule type: RNA
Matrix: in vitro
Concentration: 20 nM
Notes: 6-mer, flanks averaged, single round
Together with: 150 mM LiCl
Baseline: input library
Direction: higher = stronger binding
Measurement: 6-mer enrichment (R)
Strand = UCCCUA; value = 0.99
Strand = AGCUAC; value = 0.835
Strand = AGACGC; value = 0.86
Strand = CCUGCU; value = 0.934
Strand = AGUAUG; value = 1.34
Strand = ACAAGG; value = 0.894
Strand = GACAUG; value = 0.941
Strand = AGAUCA; value = 0.818

Sample 2
Compound: CNC(=O)Nc1ccc2c(c1)[C@@]1(CC2)OC(=O)N(CC(=O)N(Cc2ccc(F)cc2)[C@@H](C)C(F)(F)F)C1=O
Effect on: cell-free assay
Technique: competition with immobilised ligand
Concentration: 1 µM
Measurement: remaining binding
target = KDR (Homo sapiens, UniProt P35968); value = 84%
target = BLK (Homo sapiens, UniProt P51451); value = 100%
target = PIP4K2B (Homo sapiens, UniProt P78356); value = 60%
target = CDK15 (Homo sapiens, UniProt Q96Q40); value = 100%
target = Tyrosine-protein kinase ABL1, phosphorylated (ABL1, Homo sapiens, UniProt P00519); value = 84%
target = ACVR2A (Homo sapiens, UniProt P27037); value = 100%
target = Ribosomal protein S6 kinase alpha-3, C-terminal kinase domain (RPS6KA3, Homo sapiens, UniProt P51812); value = 84%
target = WEE2 (Homo sapiens, UniProt P0C1S8); value = 100%
target = NEK7 (Homo sapiens, UniProt Q8TDX7); value = 100%
target = PIK3C3 (Homo sapiens, UniProt Q8NEB9); value = 96%
target = CLK2 (Homo sapiens, UniProt P49760); value = 100%
target = FLT3 (Homo sapiens, UniProt P36888); value = 96%

Sample 3
Sequence: B1 (IAA4)
Technique: two-hybrid
Direction: higher = firmer interaction
Measurement: positive tests
B1: IAA4 (Arabidopsis thaliana, UniProt P33077); chain MEKVDVYDELVNLKATELRLGLPGTEETVSCGKSNKRVLPEATEKEIESTGKTETASPPKAQIVGWPPVRSYRKNNVQTKKSESEGQGNYVKVSMDGAPYLRKIDLTMYKQYPELMKSLENMFKFSVGEYFEREGYKGSDFVPTYEDKDGDWMLVGDVPWEMFVSSCKRLRIMKGSEVKGLGCGGL
partner = IAA18 (Arabidopsis thaliana, UniProt O24408); baseline = out of 2 tests; value = 2
partner = ARF9 519-638 (Arabidopsis thaliana, UniProt Q9XED8); notes = weak activation fusion; baseline = out of 4 tests; value = 2
partner = ARF1 538-665 (Arabidopsis thaliana, UniProt Q8L7G0); baseline = out of 4 tests; value = 0
partner = ETT (Arabidopsis thaliana, UniProt O23661); baseline = out of 3 tests; value = 0
partner = ARF18 482-602 (Arabidopsis thaliana, UniProt Q9C5W9); baseline = out of 4 tests; value = 0

Sample 4
SMILES: COc1cccc(-c2cc(=O)c3ccccc3o2)c1N
Effect on: enzyme activity
Action: inhibitor
Concentration: 0.5 µM
Baseline: control
Measurement: remaining activity
target = MERTK (Homo sapiens, UniProt Q12866); value = 98%
target = GSK3B (Homo sapiens, UniProt P49841); value = 95.7%
target = NEK1 (Homo sapiens, UniProt Q96PY6); value = 81.2%
target = MAPKAPK2 (Homo sapiens, UniProt P49137); value = 102%
target = CSNK1G2 (Homo sapiens, UniProt P78368); value = 98.4%
target = RPS6KA2 (Homo sapiens, UniProt Q15349); value = 96.4%
target = EPHA3 (Homo sapiens, UniProt P29320); value = 96.3%
target = FGFR1 (Homo sapiens, UniProt P11362); value = 96.8%
target = FGFR3 (Homo sapiens, UniProt P22607); value = 91%
target = NEK6 (Homo sapiens, UniProt Q9HC98); value = 102%
target = TAOK2 (Homo sapiens, UniProt Q9UL54); value = 96%
target = ULK2 (Homo sapiens, UniProt Q8IYT8); value = 109%
target = ARAF (Homo sapiens, UniProt P10398); value = 98.9%
target = GRK7 (Homo sapiens, UniProt Q8WTQ7); value = 103%
